Measurements collected from several papers.
Parts stem from different laboratories: compare values within a part only.

Sample 1
Target: Max-binding protein MNT, bHLH-zipper, MAX partner unstated (MNT, Homo sapiens, UniProt Q99583, residues 220-300)
Method: protein-binding microarray
Form: double-stranded DNA, one strand shown
Medium: in vitro
Tested at: not given
Setting: k-mer, scored over probes, only values ≥0.25
Reading: higher = stronger binding
Construct (chain): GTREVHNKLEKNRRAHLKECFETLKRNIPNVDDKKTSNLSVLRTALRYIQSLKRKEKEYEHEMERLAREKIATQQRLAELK
| Strand | E-score |
| --- | --- |
| CACCTGGC | 0.334 |
| CGCGTGCA | 0.463 |
| ATGCAGGC | 0.269 |
| CATGGGTC | 0.261 |
| CGTGGGAC | 0.416 |
| CCGTGCTC | 0.252 |
| CATGCAGC | 0.335 |
| AACATGAG | 0.291 |
| CGTGTCGC | 0.355 |
| ATAACCAC | 0.266 |
| GCACGCAA | 0.266 |

Sample 2
Target: Interferon regulatory factor 7, full length, phosphomimetic (IRF7, Homo sapiens, UniProt Q92985, residues 1-503, S101K/S471D/S472D/S475D/S476D/S477D/S483D/S484D/S487D)
Method: protein-binding microarray
Form: double-stranded DNA, one strand shown
Medium: in vitro
Tested at: 250 nM
Setting: 60-bp whole probe
Added: salmon DNA 0.4 mg/ml
Baseline: random background probes
Reading: higher = stronger binding
All sequences stand within: GCCTAGCAC … GTCTTGATTCGCTTGACGCTGCTG
Target sequence (chain): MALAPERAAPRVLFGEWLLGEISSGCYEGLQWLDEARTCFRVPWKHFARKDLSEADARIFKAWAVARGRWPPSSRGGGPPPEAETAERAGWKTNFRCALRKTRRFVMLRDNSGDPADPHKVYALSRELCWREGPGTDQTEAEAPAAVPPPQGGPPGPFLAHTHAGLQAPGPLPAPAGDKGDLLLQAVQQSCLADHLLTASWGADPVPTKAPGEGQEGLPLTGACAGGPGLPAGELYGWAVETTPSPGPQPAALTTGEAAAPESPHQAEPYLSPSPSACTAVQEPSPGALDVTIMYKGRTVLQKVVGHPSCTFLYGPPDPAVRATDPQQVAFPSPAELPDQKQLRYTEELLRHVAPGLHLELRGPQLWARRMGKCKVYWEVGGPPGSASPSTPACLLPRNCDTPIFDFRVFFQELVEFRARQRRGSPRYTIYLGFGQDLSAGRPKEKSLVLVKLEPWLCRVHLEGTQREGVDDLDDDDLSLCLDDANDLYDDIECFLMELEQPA
| Strand | log fluorescence |
| --- | --- |
| GACGAACTGAGTCTCGAGGCGTGCTAG | -0.0817 z-score |
| GACGGTTTCGGTATCGGTACGTGCTAG | 10.8 z-score |
| TTAGTTTTCGGGTTTCGATTAGTGCTA | 10 z-score |
| TTAGGACTGGGTATCGGCTAGTGCTAG | -0.247 z-score |
| GACGGTTGCCTTTCCCTGACGTGCTAG | -0.0718 z-score |
| TCAGATATCAGTTTCGATTAGTGCTAG | 8.74 z-score |
| ACTAATTTTCAATTCCTGAAGTGCTAG | 0.434 z-score |
| TCATATTTATTTTTACAACTGTGCTAG | 0.794 z-score |
| GACTGTCTCCTTCTCCTGACGTGCTAG | 0.133 z-score |
| TTAGGACTGGGCTTCGGTTAGTGCTAG | -0.0375 z-score |
| GACGATTTCAGTCTTGAGACGTGCTAG | 0.0837 z-score |
| GGAGGAGCGGGACTGCCACCGTGCTAG | -1.2 z-score |
| GACGATTTCAGTATAGAGACGTGCTAG | 0.228 z-score |
| TATAGAGTAGTTTTTCAACCAGTGCTA | -0.588 z-score |
| GACGAACTGAGTCTCGTGACGTGCTAG | 0.0341 z-score |
| GACGGTTTCGACTTTCCGGACGTGCTA | 10.9 z-score |
| TTAGGACTGGCTTTCGGTTAGTGCTAG | 0.572 z-score |
| TTAGATTTCAGTTCCGTTTAGTGCTAG | 3.27 z-score |
| TTCGGACTGCTTATCCTTTAGTGCTAG | -0.318 z-score |
| TCAAAAATGGCTTTGCAACTGTGCTAG | -0.636 z-score |
| TCTCTTCTGCTTCCTCAGGACGTGCTA | 0.753 z-score |
| AAGACTTTGCTCTGTGCGTAGGTGCTA | -0.397 z-score |
| TCTGCTTTGCCTTCAGCCCGGTGCTAG | -0.351 z-score |
| GACGATTTCAGACTGAAGACGTGCTAG | -0.143 z-score |
| TTAGAACTGGGGTTTCGAGTAGTGCTA | 2.34 z-score |

Sample 3
Target: RNA binding protein fox-1 homolog 2, RRM domain, GST-SBP tag (RBFOX2, Homo sapiens, UniProt O43251-10, residues 100-194)
Method: RNA Bind-n-Seq
Form: RNA
Medium: in vitro
Tested at: 365 nM
Setting: natural RNA segment, single round, ends assumed
Baseline: no-protein control
Reading: higher = stronger binding
All sequences stand within: GGGAGUUCUACAGUCCGACGAUC … UGGAAUUCUCGGGUGCCAA
Residues (chain): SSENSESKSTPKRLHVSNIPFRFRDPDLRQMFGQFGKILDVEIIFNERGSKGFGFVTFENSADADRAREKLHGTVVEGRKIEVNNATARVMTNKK
| Strand | RBNS enrichment (R) |
| --- | --- |
| UUUUAUUUUUAAGAAAAAAACUUUGUAAUGCUUGUGAUUCCAUCUGGGCAAAAGUCUGAAGAUCUGAAAUAACUUUAUAUCAAACCAUUGAUCAAUAAACAGCUACUAAU | 0.433 |
| AGAAAGAUCUGGAAGAAGGCCUGGCAGUGAAUCCAAGGACUCUGGGCCCCCAACAAUAGAUGGUAGCGUAAGUCUGGAGCAGCGGUGUUUCACCACCAAAUGCCUUUCCA | 0.297 |
| AUCUUUGUUAAGUUUCAUGAUGUGUUAGUACACUGUUCUAUUGCUGUAAAGAGACACCAUGACAAAGACAACUCAUAUAAAAGGAAGUGUUGAGUUGGGGGCUUGCUUAU | 0.416 |
| CACAAUGAAAGAAUGCAAUCUUCCCACCAGCUACAUGACUACUUGUUCUCUGUGAAGUGUACUCUUGGGAAGUAUUAACUUUAUAUACAGUUCAGGGGAUCUCAGCUAAC | 0.448 |
| AAUCAGAAUAUCUUGGAUGGAACCCAGACAUCAGAUUAUUGUAUUUUCCCCCAUAAUUUAAAGUUCAGUCAUUAAGCUGUUACAUCCCUCUGAAGUUGAUUGUCUUAUAU | 0.607 |
| CCAAAUUAACACUACCUCCUCCCCAGUUGUUGGUAUUCAUUCAUUAUAUGUGUGUUUAACAGGAUGAGAGCAUGGCGAGCUUGUAGCACACCAGAGGUUGUAGACCUAUA | 1.27 |
| UAUUAAAAACUCAUGUGGAGGAACUCAAGGAAUGUUUAGAAGACCAAAAGUCCCCAAUGACAGGAACAAAAGCAACCAAUUUUUAACUUUCUCUUCUCAUUCCUGUUUUC | 0.972 |
| AGAGGAGACAGUCUAUCACUCCCCCUAGACCAGGCGCUUUGCGGUGACAGCUGGAGCUAUAUGGAUGGGUGAUGAGAGACGUUCCCCCAUCCUGUGUCUCCUGCUGUGUG | 0.496 |
| UUUUUUCUUGCAUUGACAUUAUUGACGUUGAGGACCUCAUCAGAUCAAUUUAAAAGUGAGUGUGGAAGGGAAACGAAAGUCAACAUAUUUUUAAAAGAUCUUAAAAAUAA | 0.301 |
| CAACCACUCGUUGGUCAAGUUCAGACACCAUCCAUGGAGGUUGCAGGAAAGCUGGGGAAGGUUAUGAGUGGGAAUACUGUUUCGAAAGUAUCGUGCAUUAAAUGGGCAGU | 1.25 |
| ACCCUCCAUUUUUUCAUUACUCAACUUGUUCCCCAAGAAUAUAGUAUUCUAGGAUCCUAUUAGUCUGCUUUUCAUAUACUGUACUUUGAGUAUAGGGAAUGGGCACUGAG | 0.48 |
| CAGCAGCGAGGCCACUGAAGAGCAACACACCCAGUGUGUGUCAGUGUUCUCAGCCCAGCCCUCCCUGAGAACCCACAUUUGGCUCGUAUGUAUGUGAGCACGUUGGGGUG | 1.07 |

Sample 4
Target: RING finger protein unkempt homolog, zinc fingers 1-6, GST-SBP tag (UNK, Homo sapiens, UniProt Q9C0B0, residues 30-357)
Method: RNA Bind-n-Seq
Form: RNA
Medium: in vitro
Tested at: not given
Setting: RNA with constant flanks, human and mouse sites, ends assumed
Baseline: input RNA pool
Reading: higher = stronger binding
All sequences stand within: GGGAGUUCUACAGUCCGACGAUC … CAACAGAGGAUUGAGCAUCA
Target sequence (chain): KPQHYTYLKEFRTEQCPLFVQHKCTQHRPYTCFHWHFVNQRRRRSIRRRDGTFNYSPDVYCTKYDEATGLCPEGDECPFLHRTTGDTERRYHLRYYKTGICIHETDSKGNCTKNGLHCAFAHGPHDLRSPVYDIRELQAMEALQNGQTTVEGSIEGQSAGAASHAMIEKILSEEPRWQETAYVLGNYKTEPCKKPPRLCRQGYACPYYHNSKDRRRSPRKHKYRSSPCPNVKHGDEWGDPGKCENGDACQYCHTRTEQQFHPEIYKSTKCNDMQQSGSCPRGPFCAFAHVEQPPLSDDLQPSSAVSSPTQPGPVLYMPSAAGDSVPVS
| Strand | bound/input enrichment |
| --- | --- |
| CAUGUUAAAGAGCAUCACUUUGGAUCCUCUGGAAUGACAUUGCAUGAACGCUUUACUAAAUACCUAAAGAGAGGAAAUGAACAAGAAGCAGCUAAAAAUAAGAAAAGCCCAGAGAUACAC | 0.276 ratio |
| AAUGUGCUGUGUCAAGAGCAGCGGCGGUGACGCAGGUGUAGAGAUUUGUCAGAGCUCAUGUAGUUGUAGUCUUAAGGCCUGUGCAUUUCACUGCGUGGGUUACUCAAUUUAUAAAGCAAA | 1.06 ratio |
| AGUCUUGCAUCUUUACUAGAACUAUUGAAAGGUGUCUUCAGCACAUGUAAAGGGGACCUCUUAGAAGUUACAGAUGGCAAUGUGAAGACCCAGCCUGCAGUCCUAGAGAAUCUGGUCUUC | 0.288 ratio |
| ACUGUAGAGUUUGCAGAUGAGGUCCGGUUGUCCUUCAUCUGUACCGAAGUAGACUGCAAGGUGGUCCACGAAUUCAUUGGUGGUUACAUAUUUCUCUCAACUCGUGCGAAAGACCAAAAU | 0.125 ratio |
| GGCGGCCGGCGCUACAUGAUGAUCGUGGAUCCUGCCAUCAGCAGCUCGGGCCCUGCCGGGAGCUACAGGCCCUACGACGAGGGUCUGCGGAGGGGGGUUUUCAUCACCAACGAGACCGGC | 0.0949 ratio |
| GCUCUGCCCAGUAUCCCUCACUUACCAAGAGGAGAAUGGAGGGAUAAUGGACUCACCCUAGCCUAGGGCUUCGACAUUGCAUGCUGGGAUCCAGCUCCUACCCUUCCUGCACUCCCUUCC | 0.215 ratio |

Sample 5
Target: Sal-like protein 4, full length isoform B (SALL4, Homo sapiens, UniProt Q9UJQ4-2, residues 1-616)
Method: universal PBM
Form: double-stranded DNA, one strand shown
Medium: in vitro
Tested at: not given
Setting: 8-mer, flanks averaged, mean of replicates
Reading: higher = stronger binding
| Strand | E-score |
| --- | --- |
| GGTTGCGA | -0.0401 |
| TGAAAAAA | 0.355 |
| ATGGCCGG | -0.184 |
| AACGGTAC | -0.0162 |
| AGGAATAA | 0.251 |
| CAGTGCCA | -0.176 |
| ACAGAGAC | 0.0314 |
| CCGATAGA | -0.0971 |
| AGGGGACA | -0.214 |
| AGCCACCT | -0.135 |
| CGAGTGAA | -0.0107 |
| CGACTTGA | -0.0156 |
| CAGACTGG | -0.0934 |
| ACCACGAG | -0.143 |
| ACGAGCCC | -0.189 |
| ACCGGAGC | -0.294 |
| AGGATAAC | -0.0249 |
| ATGCCGTA | 0.00567 |
| GGTATCAC | -0.133 |
| GCGTCCCA | -0.342 |
| CTATGCGA | -0.14 |
| GACAATAC | 0.269 |
| AACACTTG | -0.0417 |
| GCATGATA | 0.295 |
| ATAACGAA | 0.27 |

Repeated from above (sample 5):
| Strand | E-score |
| --- | --- |
| GCATGATA | 0.295 |
| AACGGTAC | -0.0162 |
| ACCACGAG | -0.143 |
| CAGACTGG | -0.0934 |
| CAGTGCCA | -0.176 |
| CCGATAGA | -0.0971 |
| ATGCCGTA | 0.00567 |
| AGCCACCT | -0.135 |
| CTATGCGA | -0.14 |
